# Measurements from different studies.
# Values joined by “and” are separate records of one study, mostly repeats; a detail may differ. Numbers after ± are the reported error.
Compound,organism,assay,test system,conditions,how to read,quantity,result
COC1=CC(c2ccc[nH]2)=N/C1=C\c1cc(-c2ccc(OC)cc2)c(C)[nH]1.Cl,Plasmodium yoelii,,CF1 mice,"oral, 10 mg/kg daily for 4 days, day 5",baseline: vehicle,parasitaemia reduction,32.3%
Cc1c2c(nn1C)CSCc1cc(n(C)n1)CSc1cc(c3ccccc3c1)OCCCc1c(C(=O)O)n(C)c3c-2c(Cl)ccc13,Staphylococcus aureus,"label-free quantitative proteomics, refers to: SAOUHSC_02629 protein",SA113,concentration not given,baseline: untreated control,log2 fold change,4.08
CN[C@H](CC(C)C)C(=O)N[C@H]1C(=O)N[C@@H](CC(N)=O)C(=O)N[C@H]2C(=O)N[C@H]3C(=O)N[C@H](C(=O)N[C@H](C(=O)O)c4cc(O)cc(O)c4-c4cc3ccc4O)[C@H](O)c3ccc(c(Cl)c3)Oc3cc2cc(c3O[C@@H]2O[C@H](CO)[C@@H](O)[C@H](O)[C@H]2O[C@H]2C[C@](C)(N)[C@H](O)[C@H](C)O2)Oc2ccc(cc2Cl)[C@H]1O,Streptococcus pyogenes,,"erythromycin-resistant, 19 strains",,,MIC50,0.25 µg/mL
O=[N+]([O-])c1cc2c(ccc3c2ccc2cc([N+](=O)[O-])oc23)o1,Mycolicibacterium aurum,REMA,ATCC 23366,,,MIC90,0.5 µg/mL
CC[C@H](C)[C@H](NC(=O)[C@H](C)NC(=O)[C@H](CCCCN)NC(=O)[C@H](CC(C)C)NC(=O)[C@H](C)NC(=O)[C@@H](NC(=O)[C@H](Cc1c[nH]cn1)NC(=O)[C@H](CC(C)C)NC(=O)[C@@H](NC(=O)[C@@H](NC(=O)[C@H](CCCCN)NC(=O)[C@H](C)NC(=O)[C@H](C)NC(=O)[C@H](CO)NC(=O)[C@H](CCCCN)NC(=O)[C@H](Cc1ccccc1)NC(=O)[C@@H](NC(=O)[C@H](CCCCN)NC(=O)[C@H](CC(C)C)NC(=O)[C@H](Cc1ccccc1)NC(=O)[C@H](CO)NC(=O)[C@H](CCCCN)NC(=O)[C@H](Cc1c[nH]c2ccccc12)NC(=O)[C@H](CCCCN)NC(C)=O)[C@@H](C)O)[C@@H](C)O)C(C)C)[C@@H](C)O)C(=O)N[C@@H](CO)C(=O)N[C@@H](CO)C(N)=O,Staphylococcus aureus,,MSSA,67 strains,,MIC50,4 µg/mL
O=C(CCCN1CCC(O)(c2ccc(Cl)cc2)CC1)c1ccc(Br)cc1,Tetrahymena pyriformis and Klebsiella pneumoniae,virulence in co-culture,,,,IC50,1140 nM
COC1=CC(c2ccc[nH]2)=N/C1=C\c1[nH]c(Cc2ccc(OC)cc2)cc1Cc1ccc(OC)cc1.Cl,Plasmodium yoelii,,CF1 mice,"oral, 10 mg/kg daily for 4 days, day 5",baseline: vehicle,parasitaemia reduction,78.5%
CC1(C)SC2C(NC(=O)C(NC(=O)C3=C(O)CN(c4ccccc4)C3=O)c3ccccc3)C(=O)N2C1C(=O)O (centres unmarked),Escherichia coli,broth microdilution,"isolate IU 356 A, KPC-3, VIM-1, TEM",no clavulanic acid,,MIC,> 200 µg/mL
Cn1c(=O)ccc2ccc(F)c(CCNC[C@H]3CN(c4cnc5c(n4)NC(=O)CO5)C(=O)O3)c21,Ureaplasma spp.,,,,,MIC90,< 0.015 µg/mL
Cc1nc(C)c(-c2ccc(Oc3ccc(OC(F)(F)F)cc3)cc2)c(OC(=O)N(CCNC(C)C)C(C)C)c1Br,Plasmodium yoelii,,17XL,384-well,,IC50,1400 ± 111 nM
CS(=O)(=O)CCCn1c(Cn2c(=O)n(CC(F)(F)F)c3ccncc32)cc2cc(Cl)ccc21,respiratory syncytial virus,RT-qPCR,"hospitalized infants 1-24 months, nasal swab","oral, 2, 1.5 or 1 mg/kg daily, day 28, low dose by age cohort",baseline: baseline,LS mean viral load change,-5.1 log10 copies/mL
CC[C@H](C)[C@H](NC(=O)[C@H](CC(N)=O)NC(=O)[C@H](CCCCN)NC(=O)[C@H](CC(=O)O)NC(=O)[C@H](Cc1ccc(O)cc1)NC(=O)[C@H](Cc1ccc(O)cc1)NC(=O)[C@H](Cc1ccc(O)cc1)NC(=O)[C@H](CCCNC(=N)N)NC(=O)[C@H](CC(C)C)NC(=O)CNC(=O)[C@H](CCCNC(=N)N)NC(=O)[C@@H](N)CO)C(=O)N[C@H](C(=O)N[C@@H](Cc1c[nH]cn1)C(=O)N[C@@H](CCCCN)C(=O)N[C@H](C(=O)N[C@@H](C)C(=O)NCC(=O)N[C@@H](CCCCN)C(=O)N[C@@H](CCCNC(=N)N)C(=O)N[C@@H](Cc1ccc(O)cc1)C(=O)N[C@H](C(=O)N[C@@H](Cc1ccc(O)cc1)C(=O)N[C@@H](CCCNC(=N)N)C(=O)N[C@@H](Cc1ccccc1)C(=O)N[C@H](C(=O)O)C(C)C)C(C)C)[C@@H](C)O)[C@@H](C)CC,Staphylococcus haemolyticus,,,,,MBC,64 µg/mL
CNCCCN(C)C(=O)Oc1c(Br)c(C)nc(C)c1-c1ccc(Oc2ccc(OC(F)(F)F)cc2)cc1,Plasmodium yoelii,,17XL,384-well,,IC50,2660 ± 457 nM
CC1(C)SC2C(NC(=O)C(NC(=O)C3=C(O)C4(CC4)NC3=O)c3ccccc3)C(=O)N2C1C(=O)O (centres unmarked),Escherichia coli,broth microdilution,Keio mutant JW0146-2,"18 h, ferric hydroxamate uptake gene",,MIC,50 µg/mL
COC1=CC(c2ccc[nH]2)=N/C1=C\c1cc(-c2ccc(OC(F)(F)F)cc2)c(C)[nH]1.Cl,Plasmodium yoelii,,CF1 mice,"oral, 25 mg/kg daily for 4 days, day 5",baseline: vehicle,parasitaemia reduction,100%
Nc1ncnc2c1ncn2[C@@H]1O[C@@H]2COP(=O)(O)O[C@H]3[C@@H](O)[C@H](n4cnc5c(=O)[nH]cnc54)O[C@@H]3COP(=O)(O)O[C@H]2[C@H]1O,West Nile virus,"RNA sequencing, refers to: antiviral mechanism, ISG15, R-HSA-1169408",HFF-1 cells,"concentration not given, upregulated pathway",baseline: WNV-infected untreated cells,fold enrichment,5.62
NC[C@H]1O[C@H](O[C@H]2[C@H](O)[C@@H](O[C@H]3O[C@H](CO)[C@@H](O)[C@H](N)[C@H]3O)[C@H](N)C[C@@H]2N)[C@H](O)[C@@H](O)[C@@H]1O,Acinetobacter baumannii,colony counting,"19606, biofilm","100 µg/mL, 12 h, without HNP1",,survival,0.18% and 0.135% and 0.0449% and 0.0898%
COc1ccc2c(ccc3oc([N+](=O)[O-])cc32)c1,Klebsiella aerogenes,REMA,,,,MIC90,> 32 µg/mL
Cc1cc2cc(O)cc(O)c2c(=O)o1,Tetrahymena pyriformis and Klebsiella pneumoniae,virulence in co-culture,,,,IC50,9630 nM
C[C@@H](O)[C@H]1C(=O)N2C(C(=O)O)=C(S[C@@H]3CN[C@H](C(=O)N(C)C)C3)[C@H](C)[C@H]12,Acinetobacter baumannii,,"rat, lung","intravenous bolus, 15 mg/kg twice daily",,lung bacterial load,2.31 log10 CFU/g
Cc1c([N+](=O)[O-])oc2ccc3ccccc3c12,Mycolicibacterium aurum,REMA,ATCC 23366,,,MIC90,0.5 µg/mL
COc1cccc(C(=O)NN(C(=O)c2cc(C)cc(C)c2)C(C)(C)C)c1C,Anopheles funestus,,"FUMOZ, resistant","tarsal contact, dose not given, 24 h post blood meal, added: RME",baseline: control,lifespan,decreased
O=[N+]([O-])c1ccc(C2=[N+]([O-])c3ccccc3N3CCN=C23)cc1,Prevotella spp.,bacterial growth,,,,MIC50,≤ 0.06 µg/mL
CCOC(=O)C1(Cc2ccccc2)CN(c2ccccc2)Cc2nnn(Cc3cccc(Cl)c3)c21 (centres unmarked),human adenovirus 2,viral replication,HEL,,,EC50,> 100000 nM
CCCCc1ccc2nc(NC(=O)c3nc4nc(C)cc(C)n4n3)sc2c1,Tetrahymena pyriformis and Klebsiella pneumoniae,virulence in co-culture,,,,IC50,660 nM
CN[C@H](CC(C)C)C(=O)N[C@H]1C(=O)N[C@@H](CC(N)=O)C(=O)N[C@H]2C(=O)N[C@H]3C(=O)N[C@H](C(=O)N[C@H](C(=O)O)c4cc(O)cc(O)c4-c4cc3ccc4O)[C@H](O)c3ccc(c(Cl)c3)Oc3cc2cc(c3O[C@@H]2O[C@H](CO)[C@@H](O)[C@H](O)[C@H]2O[C@H]2C[C@](C)(N)[C@H](O)[C@H](C)O2)Oc2ccc(cc2Cl)[C@H]1O,Enterococcus faecalis,broth microdilution,VanA vancomycin-resistant clinical isolates,,,MIC range,> 32 µg/mL
